# Measurements from different studies.
# Numbered parts are unrelated; each lists some results of a single study.

# Study 1
# Target: Histone acetyltransferase KAT6A, winged helix 1, GST fusion (KAT6A, Homo sapiens, UniProt Q92794, residues 1-85)
# Method: protein binding microarray
# Molecule type: double-stranded DNA, one strand shown
# Medium: in vitro
# Tested at: not given
# Notes: 8-mer, flanks averaged, mean of 2 arrays, mostly near background
# Baseline: not given
# Direction: higher = stronger binding
# Construct (chain): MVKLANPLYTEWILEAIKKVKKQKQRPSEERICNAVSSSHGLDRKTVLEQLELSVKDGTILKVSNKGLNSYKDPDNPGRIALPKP
Sequence,E-score
AGCGGGGA,0.218
GTCCAGAC,-0.102
AAACGGTG,-0.0648
ACAAACGG,0.0913
CAACCTTA,-0.0918
ACCTGCAA,-0.133
ACGTGTCG,-0.0981
GTGATTCA,-0.232
AGTAGATA,-0.0213
ATAAAGGA,-0.181
AGTGAGAA,-0.156
GGGACCGA,0.108
GTTGACGA,-0.155
GCACTTGA,0.0383
GGCGAAAA,0.133
CCAGCTAC,-0.274
CAGGGAAC,-0.218
CAGCCCAC,-0.127
AGTCGTCA,-0.21
TGTATAAA,-0.0688

# Study 2
# Target: RING finger protein unkempt homolog, zinc fingers 1-6, GST-SBP tag (UNK, Homo sapiens, UniProt Q9C0B0, residues 30-357)
# Method: RNA Bind-n-Seq
# Molecule type: RNA
# Medium: in vitro
# Tested at: not given
# Notes: RNA with constant flanks, human-mouse chimeric sites, ends assumed
# Baseline: input RNA pool
# Direction: higher = stronger binding
# All sequences stand within: GGGAGUUCUACAGUCCGACGAUC … CAACAGAGGAUUGAGCAUCA
# Residues (chain): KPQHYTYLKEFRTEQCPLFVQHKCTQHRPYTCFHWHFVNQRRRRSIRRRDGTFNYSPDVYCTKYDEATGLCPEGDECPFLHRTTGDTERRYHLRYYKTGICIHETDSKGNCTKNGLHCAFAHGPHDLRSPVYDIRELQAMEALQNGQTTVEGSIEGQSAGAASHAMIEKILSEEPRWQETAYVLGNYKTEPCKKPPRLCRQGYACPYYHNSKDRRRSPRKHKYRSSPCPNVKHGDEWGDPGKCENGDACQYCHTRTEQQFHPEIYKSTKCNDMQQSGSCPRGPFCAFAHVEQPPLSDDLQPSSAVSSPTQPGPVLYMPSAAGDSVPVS
Sequence,bound/input enrichment [ratio]
GGUGGGGUGGUCAUUGCCGUUUGAGCUGCUGAUUUUCAUGAGUCGCCUUCAAAACUCUCGCAUAGGGUUGACACUGUGGGGGGGUGGGGGAUCCAGCUUAUUCUUUUAUUUUCAAGUCCA,0.364
UCUUUAAAAAAAAAAUUACCUUUUCUGACAGUGCUUUCCCUCCCAUAGAUCCACGUUCAAGCUCAAAGAGCAAAGGCUUUGCACGGAUCUGAUGAUGAAAAGAAAGAAAGAUUUCUGAGA,0.276
GUAAUGUUUAUUCAUUUAACUUAUUUUUAUAGCUAGAUAAAUAUUGUUAGUCUUAGACAAUAGCUCACAUCUUUACAGAAGCAUGCCCUCCCUGUCCAUUUGUCUUAUAACAUGACCCAG,6.18
CUUAAUGUUAAUAUUUUUGAAUAAAUGUAAAACCAUGGUCUGCUUUUGGUACAACACGCAUUAAUAAAAGGUUAAGUUUUGUUUUCCACUGAAGUACUAUUUAACAUCUCAGAAAAAAAC,0.209
AUGGAACAUUUCGAUGCGUCACUCAGUACCUAUUUCAAGGCCUUCCUGGGCCCCCGAGAUACUAGAGUAAAAGGAUGGUUCCUCCUGGACAAUUACAUCCCUACGUUUGUCUGUUCUGUU,0.109
UGUGCAUAUGAUGCUUGAGAUGGUUUUUGCAAAAGCAGAAAUCGCUGCAAGGUCAUUACAAUAGAUACAAGCGGUAUUUUAAACCUUUGAAAUAAAUGGAUGUAACUGUACCUUGGUACA,0.205
UCUUUAAAAAAAAAAUUACAGGAAAAUACAGUGCUUUCCCUCCCAUAGAUCCACGUUCAAGCUCAAAGAGCAAAGGCUUUGCACGGAGCUCAAACAUCUGAUGAAGAUUUUUGAGACAGA,0.898
GAGUCGAGCAAACUUGAAACAAUUCGUUAUCUUGCAGCCUCAGUGUUUUUACUUGCCGCGAUAGCAUAUUGGGAUUUUAGGUUCUGGAAGGAGAACUGACGAUGAUGCUGCCGCUGCUGC,0.185
ACAGUUAUAUUGUUGAGUUUCAUUUUCAUAUAUUCUUGUAGUGUCUGCUUGCCUGUGUCUUUUAGUAAAAUAAAAUAAGCCUUUGAAAAUAUUUUAGAUUUAACAUUAACAUUUUCUAAA,22.3
CUAAUCCCCUUUACUGCUCCACCACUGCUCAUGGUAAUAACAAAGUCUUAUAUCCCCGUCCUAGCUUUCACUCAGAUGGCUUAUGGAGCCGGUUUCCUAGCUUUCUUGGGAGGGAUCAGA,0.469
CACACCCUCUUCUGCGGGACCCUCAUCUUGCAGGCCCGGGCCUAUGUGGGACCGCACGUGCUAGCAGUGGUGACCCGCACAGGGUUCUGCACGGCAAAAGGGGGCCUGGUGAGCUCCAUC,0.0857

# Study 3
# Target: Sal-like protein 4, full length isoform B (SALL4, Homo sapiens, UniProt Q9UJQ4-2, residues 1-616)
# Method: universal PBM
# Molecule type: double-stranded DNA, one strand shown
# Medium: in vitro
# Tested at: not given
# Notes: 8-mer, flanks averaged, mean of replicates
# Direction: higher = stronger binding
# Residues (chain): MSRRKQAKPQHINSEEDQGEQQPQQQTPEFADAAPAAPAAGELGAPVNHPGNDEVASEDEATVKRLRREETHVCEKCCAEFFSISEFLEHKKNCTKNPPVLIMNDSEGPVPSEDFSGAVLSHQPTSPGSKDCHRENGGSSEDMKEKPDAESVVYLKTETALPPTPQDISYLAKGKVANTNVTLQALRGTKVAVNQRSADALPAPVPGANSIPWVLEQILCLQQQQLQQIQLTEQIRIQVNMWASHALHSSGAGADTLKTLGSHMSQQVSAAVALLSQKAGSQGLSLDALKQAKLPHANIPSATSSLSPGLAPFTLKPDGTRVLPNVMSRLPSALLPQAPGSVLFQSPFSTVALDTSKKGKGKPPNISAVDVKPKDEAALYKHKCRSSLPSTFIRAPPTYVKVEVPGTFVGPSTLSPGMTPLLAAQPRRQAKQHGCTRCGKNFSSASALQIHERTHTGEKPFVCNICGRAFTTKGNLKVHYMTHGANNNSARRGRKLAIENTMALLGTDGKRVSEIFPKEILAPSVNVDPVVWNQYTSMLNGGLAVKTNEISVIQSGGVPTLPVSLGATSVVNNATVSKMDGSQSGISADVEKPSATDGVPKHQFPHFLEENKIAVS
Sequence,E-score
CAACGTCA,0.0579
AGCCATTA,0.185
AGTTCTAG,-0.0257
AACAGGCA,0.0511
TGTTTTAA,0.305
ACGCTACG,-0.0137
GGACACCA,-0.0323
CGGCGCAG,-0.255
CTGCAGTA,-0.0242
CGTGGCCC,-0.282
AGGGAAGC,-0.0295
CTCCAGAC,0.0304
GCCCCGAA,-0.288
ACTTAACA,0.0854
ATCGGTCC,-0.285
ACCAAGTG,-0.021
TAGGGTGA,-0.0263
AATTACTG,0.156
AAATGGCG,0.0738

# Study 4
# Target: RNA binding protein fox-1 homolog 2, RRM domain, GST-SBP tag (RBFOX2, Homo sapiens, UniProt O43251-10, residues 100-194)
# Method: RNA Bind-n-Seq
# Molecule type: RNA
# Medium: in vitro
# Tested at: 365 nM
# Notes: natural RNA segment, single round, ends assumed
# Baseline: no-protein control
# Direction: higher = stronger binding
# All sequences stand within: GGGAGUUCUACAGUCCGACGAUC … UGGAAUUCUCGGGUGCCAA
# Residues (chain): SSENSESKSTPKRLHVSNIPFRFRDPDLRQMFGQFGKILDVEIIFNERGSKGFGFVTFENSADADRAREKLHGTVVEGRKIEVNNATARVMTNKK
Sequence,RBNS enrichment (R)
UGCACUUUUUGUUCAGAGUUUAAGGCUAGGAUAUUGGUUUUUCCCACUGACUGAGCUGUCCUGCAAACCAGUCAAUACCUUAUGGUUAUGUCUGAAGGUUUUAAAUAGUG,0.443
UAAAACCAUUAGUAUUUUACUUUGACUCAGUACCUUGGUUUGUCCCAACUGAAUAAGAGUUUGUAUUGUGUGUGUGUUCCUUGAAACCAAUGAUUUUCAAACUUUACAGC,0.465
CGAAAGGUGACAUCUAAUUUCACAUUAAAAUGUUAGUGGAUAUAAUUUCAUGGUUGUACUUCUUAGAUUUAAUUUCUAGGCCAACACGUUAUCUUAAGGUGCAGUUUUAA,0.324
GUUAACUGGUAAUCGCCUUUGCUUGCCUGUCGUCAGUGCAGCGAGCUGAGGCACUUGUCCGUUCGUCUUACCAUCUAACCAAACAAAAGACAAAGAAAUUGUCCUCCAAC,0.241
CCCUUAGUACAAUUCUUAGUGUCAAUAGCACAGCACCCCAGCUUGUACAAGUCAUUCUCUGUUAGGAUUCCUUUCAAUUCUCACUGUCUACAAUGCUCUUCAUGGUCUCA,0.739
CCUCCACAGGUGCCUUAAAGGGCCCUCGUCCACCCAAGGUGGGGGGCAGGGGCCCUCACUCUCCGGCCCUGGUGUGGGGGAGAGAGUGAGGGGUUGGGGGAUCGGCAGUU,0.616
AUGCUGACAGUCUUGCAGCAUGGGAACAAAGACAUCAUAUUUUGCUUCAAAUUCUCUUUCAGUAGUACAAUAGCAGGGGGAAAGGGGACAGGUAACAGGAGUACCUUUGU,0.641
CUCGUCAUGUUUUCUGCGGAAAAGAACAGGCAGGAAAGCUGCUCCGAGCAGUUAGAGAAAAGCCGCCUCACACUGUGUUUCACACUCGGGCAGUAAGUAUUGUAACGCCG,0.354
GUGUCAGAAAUAAAGUGUUCGUGCUUUUCCUUGUCAGGAGUCCCGUGUUUGUCACUUGUUGUGUGGUUUUAUGUUUCCCGCUGUGUGAGCAUAAACACUGUGCAGUUUUC,0.347
UGAGUUUUUGUUCUUAGAUAACCCACAUUAGAUGAAUGUGUUAAGUGAAAUGAUACUUGUACUCCCCCUACCCCUUUGUCAACUGCUGUGAAUGCUGUAUGGUGUGUGUU,3.16
UAUGGGAUUCAACAAAAGCCUAUUAUGCUUGUUUGCAUUAUGGUUACAAUAUUAAAAAGUGGAUUCACUUGGCUGGCUGCUGUCUUCUGUUGGAUUUGCUUGGAGUUUCU,0.448
CAAGCCCUGCUGAUCAGAGAAAGUCUCUGCAUGUUCUAGUGUUAGUAACUAAUUUUUAUAUAGUUAAUGUAGGAUAAAGUAGAGUGCAUUAAGACACAAUAUUGUAAUCC,2.27

# Study 5
# Target: Protein C-ets-1 (ETS1, Homo sapiens, UniProt P14921, residues 1-441, K379A, full length assumed)
# Method: protein-binding microarray
# Molecule type: double-stranded DNA, one strand shown
# Medium: in vitro
# Tested at: not given
# Notes: k-mer, scored over probes, only values ≥0.25
# Direction: higher = stronger binding
# Residues (chain): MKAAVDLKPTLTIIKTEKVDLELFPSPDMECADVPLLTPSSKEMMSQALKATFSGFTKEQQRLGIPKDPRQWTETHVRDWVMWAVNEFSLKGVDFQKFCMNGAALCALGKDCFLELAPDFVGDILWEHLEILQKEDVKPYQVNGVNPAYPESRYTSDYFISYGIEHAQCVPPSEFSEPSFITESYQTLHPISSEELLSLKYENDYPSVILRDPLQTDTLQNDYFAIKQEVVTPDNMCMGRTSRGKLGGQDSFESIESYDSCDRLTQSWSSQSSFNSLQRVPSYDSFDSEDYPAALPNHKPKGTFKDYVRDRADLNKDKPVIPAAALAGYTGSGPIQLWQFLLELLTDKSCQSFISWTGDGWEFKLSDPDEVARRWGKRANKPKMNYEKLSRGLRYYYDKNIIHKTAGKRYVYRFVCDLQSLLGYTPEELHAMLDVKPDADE
Sequence,E-score
CTATAATA,0.27
CCGACACG,0.272
GTATCATA,0.274
CCGGGACA,0.406
CATTCCGG,0.35
CCCCCCGG,0.37
CCGGATGC,0.424
ATAACGAC,0.283
ATCCGGTC,0.35
AACCGGGG,0.444
ACCCGGAA,0.356
ATCCACCG,0.252
ATTACGCA,0.254
AACGATGT,0.318
ATGACACC,0.328
GGTATATA,0.311
ATAACCGC,0.256

# Repeated from above (study 3):
Sequence,E-score
AGCCATTA,0.185
AGTTCTAG,-0.0257
AACAGGCA,0.0511
TGTTTTAA,0.305
ACGCTACG,-0.0137
GGACACCA,-0.0323
CGGCGCAG,-0.255
CTGCAGTA,-0.0242
